Published values from different studies.
A part holds a random share of what one study measured. “And” joins repeats or separate records; there may be more than shown.
Chain of UniProt P49760 (whole entry, looked up): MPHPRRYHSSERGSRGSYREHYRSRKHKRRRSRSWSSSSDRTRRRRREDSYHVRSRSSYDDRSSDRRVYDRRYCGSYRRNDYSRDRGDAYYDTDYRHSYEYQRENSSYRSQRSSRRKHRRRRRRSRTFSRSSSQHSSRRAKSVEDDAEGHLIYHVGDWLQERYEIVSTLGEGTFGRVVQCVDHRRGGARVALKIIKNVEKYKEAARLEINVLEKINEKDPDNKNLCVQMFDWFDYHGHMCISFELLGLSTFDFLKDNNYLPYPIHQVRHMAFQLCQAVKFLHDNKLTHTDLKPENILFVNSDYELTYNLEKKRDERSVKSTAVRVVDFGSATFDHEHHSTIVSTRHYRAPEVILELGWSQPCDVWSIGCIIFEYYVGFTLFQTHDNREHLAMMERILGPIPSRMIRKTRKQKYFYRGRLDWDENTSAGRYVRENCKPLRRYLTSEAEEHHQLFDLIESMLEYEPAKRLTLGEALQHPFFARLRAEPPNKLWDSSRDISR
Chain of UniProt Q15303 (whole entry, looked up): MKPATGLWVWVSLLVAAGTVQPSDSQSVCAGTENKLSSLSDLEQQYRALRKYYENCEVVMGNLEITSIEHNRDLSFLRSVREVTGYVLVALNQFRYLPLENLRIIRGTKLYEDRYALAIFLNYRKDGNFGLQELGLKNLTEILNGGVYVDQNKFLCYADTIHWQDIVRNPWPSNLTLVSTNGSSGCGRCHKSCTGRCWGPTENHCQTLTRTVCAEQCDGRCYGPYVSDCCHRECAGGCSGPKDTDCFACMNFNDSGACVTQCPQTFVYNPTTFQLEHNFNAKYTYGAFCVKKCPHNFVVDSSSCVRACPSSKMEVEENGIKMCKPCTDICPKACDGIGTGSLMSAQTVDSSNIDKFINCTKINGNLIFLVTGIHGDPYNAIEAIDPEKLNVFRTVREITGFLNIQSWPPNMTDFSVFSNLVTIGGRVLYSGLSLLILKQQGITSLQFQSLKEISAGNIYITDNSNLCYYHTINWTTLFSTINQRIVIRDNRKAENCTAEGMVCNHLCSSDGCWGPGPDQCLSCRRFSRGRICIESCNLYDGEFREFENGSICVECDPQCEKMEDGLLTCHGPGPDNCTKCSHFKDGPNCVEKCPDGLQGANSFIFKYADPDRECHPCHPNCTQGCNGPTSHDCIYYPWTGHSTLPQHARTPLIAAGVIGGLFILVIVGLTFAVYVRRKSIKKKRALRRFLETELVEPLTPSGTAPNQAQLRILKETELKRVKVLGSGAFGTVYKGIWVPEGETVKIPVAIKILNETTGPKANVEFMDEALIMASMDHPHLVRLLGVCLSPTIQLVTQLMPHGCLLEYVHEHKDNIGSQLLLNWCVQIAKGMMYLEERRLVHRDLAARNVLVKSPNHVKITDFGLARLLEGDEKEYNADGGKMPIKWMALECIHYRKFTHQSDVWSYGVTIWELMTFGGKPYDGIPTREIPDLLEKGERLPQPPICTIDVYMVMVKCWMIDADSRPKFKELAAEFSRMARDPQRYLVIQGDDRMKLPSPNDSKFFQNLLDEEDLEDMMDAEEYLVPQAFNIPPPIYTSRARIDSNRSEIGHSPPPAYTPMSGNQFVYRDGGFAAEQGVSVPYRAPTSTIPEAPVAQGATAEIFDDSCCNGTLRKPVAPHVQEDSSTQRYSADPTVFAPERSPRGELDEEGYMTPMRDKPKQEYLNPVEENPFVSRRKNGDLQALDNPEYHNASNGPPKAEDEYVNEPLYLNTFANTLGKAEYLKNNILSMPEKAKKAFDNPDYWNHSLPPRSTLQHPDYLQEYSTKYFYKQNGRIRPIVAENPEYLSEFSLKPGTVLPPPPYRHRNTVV
Chain of UniProt Q13237 (whole entry, looked up): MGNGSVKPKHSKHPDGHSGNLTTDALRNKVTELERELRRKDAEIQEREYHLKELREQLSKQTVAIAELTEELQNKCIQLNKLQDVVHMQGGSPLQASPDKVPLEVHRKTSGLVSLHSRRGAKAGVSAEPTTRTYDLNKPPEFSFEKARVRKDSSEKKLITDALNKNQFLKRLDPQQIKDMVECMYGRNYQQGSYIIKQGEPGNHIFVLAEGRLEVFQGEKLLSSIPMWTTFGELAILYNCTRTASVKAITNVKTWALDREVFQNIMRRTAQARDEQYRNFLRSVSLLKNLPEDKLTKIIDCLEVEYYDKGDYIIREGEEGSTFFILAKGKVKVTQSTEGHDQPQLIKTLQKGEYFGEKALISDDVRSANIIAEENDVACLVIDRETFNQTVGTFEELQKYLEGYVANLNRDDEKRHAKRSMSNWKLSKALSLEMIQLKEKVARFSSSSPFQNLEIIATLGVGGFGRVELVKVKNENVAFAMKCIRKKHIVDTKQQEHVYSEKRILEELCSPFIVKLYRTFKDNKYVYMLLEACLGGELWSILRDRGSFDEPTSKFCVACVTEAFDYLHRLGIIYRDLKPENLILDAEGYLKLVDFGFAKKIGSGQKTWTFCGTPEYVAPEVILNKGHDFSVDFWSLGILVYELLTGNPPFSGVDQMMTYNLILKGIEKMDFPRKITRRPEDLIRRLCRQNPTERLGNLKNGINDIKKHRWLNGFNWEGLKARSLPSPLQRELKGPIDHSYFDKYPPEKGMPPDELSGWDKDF
Chain of UniProt P57078 (whole entry, looked up): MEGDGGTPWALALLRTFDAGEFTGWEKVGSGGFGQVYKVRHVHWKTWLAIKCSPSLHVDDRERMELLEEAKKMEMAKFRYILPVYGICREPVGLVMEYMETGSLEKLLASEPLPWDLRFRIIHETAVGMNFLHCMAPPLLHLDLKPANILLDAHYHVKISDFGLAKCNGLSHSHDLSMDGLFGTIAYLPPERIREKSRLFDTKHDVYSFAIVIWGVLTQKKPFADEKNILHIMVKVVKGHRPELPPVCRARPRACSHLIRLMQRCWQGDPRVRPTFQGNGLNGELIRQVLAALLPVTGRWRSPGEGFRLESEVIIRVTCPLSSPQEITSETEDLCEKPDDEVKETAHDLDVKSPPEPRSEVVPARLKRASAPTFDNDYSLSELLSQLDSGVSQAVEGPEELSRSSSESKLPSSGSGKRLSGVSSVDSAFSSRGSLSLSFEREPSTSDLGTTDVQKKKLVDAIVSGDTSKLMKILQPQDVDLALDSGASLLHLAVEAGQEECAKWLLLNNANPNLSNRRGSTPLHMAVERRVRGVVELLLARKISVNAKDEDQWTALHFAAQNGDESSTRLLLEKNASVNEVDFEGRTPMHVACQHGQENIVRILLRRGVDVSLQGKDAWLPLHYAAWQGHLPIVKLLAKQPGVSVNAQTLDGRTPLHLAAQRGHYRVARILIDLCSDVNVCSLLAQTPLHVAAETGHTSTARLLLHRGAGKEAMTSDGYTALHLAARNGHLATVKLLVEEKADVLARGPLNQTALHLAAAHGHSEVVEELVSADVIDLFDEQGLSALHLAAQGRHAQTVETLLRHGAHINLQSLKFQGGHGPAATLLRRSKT

Set 1
Target: Eukaryotic initiation factor 4A-III (Homo sapiens, UniProt P38919)
Chain of UniProt P38919 (whole entry, looked up): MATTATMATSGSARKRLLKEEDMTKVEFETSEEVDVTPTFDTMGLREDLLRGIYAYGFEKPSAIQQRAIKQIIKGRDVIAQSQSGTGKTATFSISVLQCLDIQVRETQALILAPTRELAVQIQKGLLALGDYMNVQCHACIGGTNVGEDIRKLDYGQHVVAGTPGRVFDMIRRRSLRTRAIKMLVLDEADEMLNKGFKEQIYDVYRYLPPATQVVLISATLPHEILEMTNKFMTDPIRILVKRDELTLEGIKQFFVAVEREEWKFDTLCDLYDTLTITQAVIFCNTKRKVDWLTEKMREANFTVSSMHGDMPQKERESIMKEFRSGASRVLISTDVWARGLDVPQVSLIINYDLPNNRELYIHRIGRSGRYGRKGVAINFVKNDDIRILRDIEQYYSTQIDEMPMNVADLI
Observed: RNA clamping
Technique: fluorescence polarization
Tested at: concentration not given
Notes: mean of two replicates
Added: FAM-labelled poly r(AG)8 RNA
`COc1ccc([C@]23Oc4cc(OC)cc(OC)c4[C@](O)([C@H](C(=O)OCc4ccccc4)[C@H]2c2ccccc2)[C@@H]3O)cc1`: “fluorescence polarization change” 1.6 mP.
For `COC(=O)[C@@H]1[C@@H](c2ccccc2)[C@]2(c3ccc(OC)cc3)Oc3cc(OC)cc(OC)c3[C@@]23NC(c2ccc(N(C)C)cc2)=N[C@@]13O`, “fluorescence polarization change” read 21.9 mP.
For `COC(=O)[C@@H]1[C@@H](c2ccccc2)[C@]2(c3ccc(OC)cc3)Oc3cc(OC)cc(OC)c3[C@@]23OC(c2ccc(C(F)(F)F)cc2)=N[C@@]13O`, “fluorescence polarization change” read -1.7 mP.
For `COc1cc(OC)c2c(c1)O[C@@]1(c3ccc(Br)cc3)[C@H](c3ccccc3)C3=C(O[C@@H]4CCCN4C3=O)[C@@]21O`, “fluorescence polarization change” read 43.2 mP.
`COc1ccc([C@@]23Oc4cc(OC)cc(OC)c4[C@]2(O)[C@H](O)[C@H](C(=O)c2ccccc2OC)[C@H]3c2ccccc2)cc1`: “fluorescence polarization change” 7.8 mP.
`COc1ccc([C@@]23Oc4cc(OC)c(F)c(OC)c4[C@]2(O)c2nc4n(c(=O)c2[C@H]3c2ccccc2)CCC4)cc1`: “fluorescence polarization change” 22.5 mP.
`COc1cc(O)cc2c1[C@]1(O)[C@H](O)[C@H](C(=O)N(C)OC)[C@@H](c3ccccc3)[C@]1(c1ccc(Br)cc1)O2` — result for “fluorescence polarization change”: 20.8 mP and 57.8 mP.
For `CCOCCOCCN(OC)C(=O)[C@H]1[C@@H](O)[C@@]2(O)c3c(OC)cc(OC)cc3O[C@@]2(c2ccc(OC)cc2)[C@@H]1c1ccccc1`, “fluorescence polarization change” read 14.6 mP.
Under “fluorescence polarization change”, `COC(=O)[C@H]1[C@@H](O)[C@@]2(O)c3c(OC)cc(OS(=O)(=O)c4ccc(C)cc4)cc3O[C@@]2(c2ccc(Br)cc2)[C@@H]1c1ccccc1` is recorded as 11.9 mP and 6.6 mP.
For `CN[C@@]12C(=O)[C@H](C(=O)OC)[C@@H](c3ccccc3)[C@]1(c1ccc(OC)cc1)Oc1cc(OC)cc(OC)c12`, “fluorescence polarization change” read 7.7 mP.
Under “fluorescence polarization change”, `COc1ccc([C@@]23Oc4cc(OC)cc(OC)c4[C@]2(O)C(=O)[C@H](C(=O)NCCCC2(C)OCCO2)[C@H]3c2ccccc2)cc1` is recorded as 29.9 mP.
For `COc1ccc([C@@]23Oc4cc(OC)cc(OC)c4[C@]2(O)[C@H](O)[C@H](C(=O)c2oc4ccccc4c2C)[C@H]3c2ccccc2)cc1`, “fluorescence polarization change” read 4.8 mP.
`COc1cc(OC)c2c(c1)N(C)[C@]1(c3ccc(Br)cc3)C(=O)[C@@]2(O)[C@H](c2ccccc2)[C@H]1c1ccccc1` — result for “fluorescence polarization change”: -0.9 mP.
For `COc1ccc([C@@]23Oc4cc(O)cc(OC)c4[C@]2(O)[C@H](O)[C@H](C(=O)N(C)OC)[C@H]3c2ccccc2)cc1`, “fluorescence polarization change” read 6.2 mP.
`COc1cc(OC)c2c(c1)O[C@@]1(c3ccc(Br)cc3)[C@H](c3ccccc3)C3=C(N[C@@H]4CCCN4C3=O)[C@@]21O` — result for “fluorescence polarization change”: 37.8 mP.

Set 2
SMILES: C[C@@H]1CN(c2cc(-c3nn(C)c4ccc(OC5(C)CC5)cc34)ncn2)C[C@H](C)O1
Tested at: 1 µM
The remaining binding was 85% (cGMP-dependent protein kinase 2 (PRKG2, Homo sapiens, UniProt Q13237); cell-free assay, competition with immobilised ligand).
It gave 84% for remaining binding (Proto-oncogene tyrosine-protein kinase receptor Ret (RET, Homo sapiens, UniProt P07949, M918T); cell-free assay, competition with immobilised ligand).
For Receptor-type tyrosine-protein kinase FLT3 (FLT3, Homo sapiens, UniProt P36888); cell-free assay, competition with immobilised ligand: remaining binding read 96%.
It gave 91% for remaining binding (Ribosomal protein S6 kinase alpha-3, C-terminal kinase domain (RPS6KA3, Homo sapiens, UniProt P51812); cell-free assay, competition with immobilised ligand).
Receptor tyrosine-protein kinase erbB-4 (ERBB4, Homo sapiens, UniProt Q15303); cell-free assay, competition with immobilised ligand — remaining binding: 96%.
For Serine/threonine-protein kinase SIK1 (SIK1, Homo sapiens, UniProt P57059); competition binding: remaining binding read 96%.
For Epidermal growth factor receptor (EGFR, Homo sapiens, UniProt P00533, L858R/T790M); cell-free assay, competition with immobilised ligand: remaining binding read 99%.
For Ephrin type-B receptor 2 (EPHB2, Homo sapiens, UniProt P29323); cell-free assay, competition with immobilised ligand: remaining binding read 95%.
It gave 100% for remaining binding (Calcium/calmodulin-dependent protein kinase type 1 (CAMK1, Homo sapiens, UniProt Q14012); cell-free assay, competition with immobilised ligand).
The remaining binding was 100% (Tyrosine-protein kinase ABL2 (ABL2, Homo sapiens, UniProt P42684); cell-free assay, competition with immobilised ligand).
Cyclin-dependent kinase 2 (CDK2, Homo sapiens, UniProt P24941); cell-free assay, competition with immobilised ligand — remaining binding: 73%.
Dual serine/threonine and tyrosine protein kinase (DSTYK, Homo sapiens, UniProt Q6XUX3); cell-free assay, competition with immobilised ligand — remaining binding: 67%.
It gave 100% for remaining binding (Serine/threonine-protein kinase RIO3 (RIOK3, Homo sapiens, UniProt O14730); cell-free assay, competition with immobilised ligand).
It gave 58% for remaining binding (Serine/threonine-protein kinase Sgk2 (SGK2, Homo sapiens, UniProt Q9HBY8); cell-free assay, competition with immobilised ligand).
The remaining binding was 100% (Casein kinase I isoform epsilon (CSNK1E, Homo sapiens, UniProt P49674); cell-free assay, competition with immobilised ligand).
The remaining binding was 85% (Calcium/calmodulin-dependent protein kinase kinase 2 (CAMKK2, Homo sapiens, UniProt Q96RR4); cell-free assay, competition with immobilised ligand).
For Receptor-type tyrosine-protein kinase FLT3 (FLT3, Homo sapiens, UniProt P36888, D835Y); cell-free assay, competition with immobilised ligand: remaining binding read 100%.
Receptor-interacting serine/threonine-protein kinase 4 (RIPK4, Homo sapiens, UniProt P57078); cell-free assay, competition with immobilised ligand — remaining binding: 85%.
Platelet-derived growth factor receptor beta (PDGFRB, Homo sapiens, UniProt P09619); cell-free assay, competition with immobilised ligand — remaining binding: 100%.
It gave 86% for remaining binding (Receptor-type tyrosine-protein kinase FLT3 (FLT3, Homo sapiens, UniProt P36888, D835V); cell-free assay, competition with immobilised ligand).
The remaining binding was 81% (Dual specificity protein kinase CLK2 (CLK2, Homo sapiens, UniProt P49760); cell-free assay, competition with immobilised ligand).
For STE20/SPS1-related proline-alanine-rich protein kinase (STK39, Homo sapiens, UniProt Q9UEW8); cell-free assay, competition with immobilised ligand: remaining binding read 70%.
It gave 91% for remaining binding (Receptor-type tyrosine-protein kinase FLT3 (FLT3, Homo sapiens, UniProt P36888, ITD); cell-free assay, competition with immobilised ligand).
It gave 89% for remaining binding (Interleukin-1 receptor-associated kinase 3 (IRAK3, Homo sapiens, UniProt Q9Y616); cell-free assay, competition with immobilised ligand).
For Serine/threonine-protein kinase DCLK2 (DCLK2, Homo sapiens, UniProt Q8N568); cell-free assay, competition with immobilised ligand: remaining binding read 100%.

Set 3
Target: Calcium/calmodulin-dependent protein kinase type II subunit alpha (CAMK2A, Homo sapiens, UniProt Q9UQM7)
Chain of UniProt Q9UQM7 (whole entry, looked up): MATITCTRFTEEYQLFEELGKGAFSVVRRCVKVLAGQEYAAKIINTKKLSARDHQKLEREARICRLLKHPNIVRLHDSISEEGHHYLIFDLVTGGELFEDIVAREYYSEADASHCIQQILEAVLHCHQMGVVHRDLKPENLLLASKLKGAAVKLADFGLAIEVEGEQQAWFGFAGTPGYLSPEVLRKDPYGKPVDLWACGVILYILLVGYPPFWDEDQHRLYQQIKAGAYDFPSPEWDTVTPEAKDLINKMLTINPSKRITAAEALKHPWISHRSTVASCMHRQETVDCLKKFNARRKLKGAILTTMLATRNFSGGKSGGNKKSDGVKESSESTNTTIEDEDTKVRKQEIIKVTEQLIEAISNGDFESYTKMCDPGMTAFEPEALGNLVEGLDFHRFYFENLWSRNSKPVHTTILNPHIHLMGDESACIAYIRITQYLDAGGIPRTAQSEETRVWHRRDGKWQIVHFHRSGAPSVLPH
Observed: enzyme activity
Mode: inhibitor
Tested at: 10 µM
`O=C1OC[C@H]2OC(O)[C@H](O)[C@@H](O)[C@@H]2OC(=O)c2cc(O)c(O)c(O)c2-c2c(O)c(O)c3oc(=O)c4c(c(O)c(O)c5oc(=O)c2c3c54)-c2c1cc(O)c(O)c2O` (mixture of isomers) gave an inhibition of -40%.
For `OC(Cn1cncn1)(Cn1cncn1)c1ccc(F)cc1F`, the inhibition was -11%.
The inhibition of `CC(=O)CCc1ccc(O[C@@H]2O[C@H](CO)[C@@H](O)[C@H](O)[C@H]2O)cc1` is reported as -47%.
`NCC(=O)N[C@@H](Cc1ccc(O)cc1)C(=O)O` has an inhibition of -13%.
The inhibition of `Cc1cc(=O)oc2cc(O)c(O)cc12` is reported as -8%.
With `CC(=O)N(CC(O)CN(C(C)=O)c1c(I)c(C(=O)NC[C@@H](O)CO)c(I)c(C(=O)NC[C@@H](O)CO)c1I)c1c(I)c(C(=O)NC[C@@H](O)CO)c(I)c(C(=O)NC[C@@H](O)CO)c1I` the inhibition was -2%.
`COc1cc(CC(=O)C(=O)O)ccc1O` has an inhibition of -16%.
`CN1C(C(=O)Nc2ccccn2)=C(O)c2sccc2S1(=O)=O` has an inhibition of -13%.
With `CCCCCC/C=C\CCCCCCCC(=O)OC` the inhibition was 6%.
For `O=c1sn(-c2cccc3ccccc23)c(=O)n1Cc1ccccc1`, the inhibition was -6%.
With `COc1cc2c(c(O)c1OC)-c1c(cc(OC)c(OC)c1OC)C[C@@H](C)[C@@H](C)C2` the inhibition was 22%.
`CC(=O)N[C@@H](CS)C(=O)O` has an inhibition of -5%.
`C[C@@H](CN1CC(=O)NC(=O)C1)N1CC(=O)NC(=O)C1` gave an inhibition of 6%.

Set 4
Target: Glycogen synthase kinase-3 alpha (GSK3A, Homo sapiens, UniProt P49840)
Chain of UniProt P49840 (whole entry, looked up): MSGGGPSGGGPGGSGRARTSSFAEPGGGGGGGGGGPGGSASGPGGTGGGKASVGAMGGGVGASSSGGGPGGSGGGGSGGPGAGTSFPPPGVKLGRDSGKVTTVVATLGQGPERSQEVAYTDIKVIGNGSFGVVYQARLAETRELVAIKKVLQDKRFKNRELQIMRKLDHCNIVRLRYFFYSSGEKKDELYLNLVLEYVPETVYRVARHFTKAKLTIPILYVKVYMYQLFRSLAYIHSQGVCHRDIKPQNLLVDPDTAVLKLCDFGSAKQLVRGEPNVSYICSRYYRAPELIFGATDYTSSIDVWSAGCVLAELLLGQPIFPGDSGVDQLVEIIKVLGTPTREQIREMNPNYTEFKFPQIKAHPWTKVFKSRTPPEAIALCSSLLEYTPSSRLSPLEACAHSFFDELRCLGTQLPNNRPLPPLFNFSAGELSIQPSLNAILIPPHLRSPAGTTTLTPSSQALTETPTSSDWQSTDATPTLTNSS
Observed: enzyme activity
Mode: inhibitor
Tested at: 0.5 µM
Baseline: control
`CC(=O)O/N=C1/C(c2c(O)[nH]c3cc(Br)ccc23)=Nc2ccccc21` gave a remaining activity of 6.49%.
`CS(=O)(=O)CCNCc1ccc(-c2ccc3ncnc(Nc4ccc(OCc5cccc(F)c5)c(Cl)c4)c3c2)o1` gave a remaining activity of 105%.
With `CC(C)c1nn(-c2c(Cl)cccc2Cl)c2nc(Cc3ccc(OCCO)cc3)[nH]c(=O)c12` the remaining activity was 73.1%.
With `COc1cc2ncc(-c3ccccc3)nc2cc1OC` the remaining activity was 97.9%.
With `CCOc1cc2ncnc(Nc3cccc(Br)c3)c2cc1OCC` the remaining activity was 110%.
`COc1ccc(-c2cnc3c(-c4ccsc4)cnn3c2)cc1` gave a remaining activity of 92.5%.
For `Cn1cnc2cc3c(Nc4cccc(Br)c4)ncnc3cc21`, the remaining activity was 100%.
`COc1cc2ncnc(Nc3ccc(OCc4ccccc4)cc3)c2cc1OC` has a remaining activity of 104%.
With `Nc1[nH]nc2nnc(-c3c(-c4ccccc4)nn4ccccc34)cc12` the remaining activity was 81.2%.
`CCC(=O)Nc1ccc2ncnc(Nc3cccc(Br)c3)c2c1` has a remaining activity of 98.2%.
For `CCN1/C(=C/C(C)=O)Sc2ccc(OC)cc21`, the remaining activity was 85.7%.
With `O=C(Nc1ccc(Cl)cc1)c1ccccc1NCc1ccncc1` the remaining activity was 80.1%.
`Cn1cc(/C=C2\C(=O)Nc3ccc(S(N)(=O)=O)cc32)c2ccccc21` gave a remaining activity of 100%.
With `CN(C)CCCn1cc(C2=C(c3c[nH]c4ccccc34)C(=O)NC2=O)c2ccccc21` the remaining activity was 11.2%.
For `COc1ccc(Cl)cc1NC(=O)Nc1cc(C)nc2ccccc12`, the remaining activity was 124%.
`C[S+]([O-])c1ccc(-c2nc(-c3ccncc3)c(-c3ccc(F)cc3)[nH]2)cc1` (centres unmarked) has a remaining activity of 94.1%.
`O=c1cc(N2CCOCC2)oc2c1ccc1ccccc12` has a remaining activity of 97.1%.
With `CC(C)[C@H](CO)Nc1nc(Nc2cccc(Cl)c2)c2ncn(C(C)C)c2n1` the remaining activity was 108%.
With `Cc1nc(Nc2ncc(C(=O)Nc3c(C)cccc3Cl)s2)cc(N2CCN(CCO)CC2)n1` the remaining activity was 103%.
For `COc1cc2ncnc(N3CCN(C(=O)Nc4ccc(Oc5ccccc5)cc4)CC3)c2cc1OC`, the remaining activity was 95.8%.
`O=C1NC(=O)/C(=C/c2ccc3nccnc3c2)S1` has a remaining activity of 88.8%.

Some of these lines once more (set 2):
For Receptor-type tyrosine-protein kinase FLT3 (FLT3, Homo sapiens, UniProt P36888); cell-free assay, competition with immobilised ligand: remaining binding read 96%.
It gave 91% for remaining binding (Receptor-type tyrosine-protein kinase FLT3 (FLT3, Homo sapiens, UniProt P36888, ITD); cell-free assay, competition with immobilised ligand).
For STE20/SPS1-related proline-alanine-rich protein kinase (STK39, Homo sapiens, UniProt Q9UEW8); cell-free assay, competition with immobilised ligand: remaining binding read 70%.
It gave 86% for remaining binding (Receptor-type tyrosine-protein kinase FLT3 (FLT3, Homo sapiens, UniProt P36888, D835V); cell-free assay, competition with immobilised ligand).
The remaining binding was 100% (Tyrosine-protein kinase ABL2 (ABL2, Homo sapiens, UniProt P42684); cell-free assay, competition with immobilised ligand).
